Measured values gathered from unrelated publications.
Lines come from different studies, so protocols differ.
Matrix: plasma

Structure (SMILES)	system	conditions	quantity	value
CCCN(C)c1cc(C(F)(F)F)nc(SCCC(=O)NCc2ccco2)n1	male Wistar rat	intraperitoneal, 25 mg/kg, single dose	MRT	1.18 h
CCC(CC)n1c(Cc2ccco2)nc2cc(C(=O)N[C@@H](CC(=O)O)c3ccccc3)ccc21	male Sprague-Dawley rat	intraperitoneal, 10 mg/kg	MRT(0-inf)	2.4 h
O=c1c(-c2ccc(Cl)c(CN3CCOCC3)c2)coc2cc(O)ccc12	male Sprague-Dawley rat	intravenous, 2 mg/kg	MRT	3.71 h
CC1(C)C(NC(=O)C(=NOC2(C(=O)O)CC2)c2csc(N)n2)C(=O)N1OS(=O)(=O)O (centres unmarked)	rat	intravenous, 10 mg/kg, single dose	MRT	0.55 h
CCCCC(=O)Nc1ccc(-c2ccc3ncn(CCC)c(=O)c3c2)cn1	male rat	intravenous, 2.5 mg/kg	MRT	4.04 h
CCC(CC)n1c(Cc2cccs2)nc2cc(C(=O)N[C@@H](CC(=O)O)c3ccccc3)ccc21	male Sprague-Dawley rat	intravenous, 1 mg/kg	MRT(0-inf)	0.92 h
COc1cc(-c2cc(=O)c3ccc(OCCCn4c(Cl)nc5ccccc54)cc3o2)cc(OC)c1OC	male Sprague-Dawley rat	intravenous, 10 mg/kg	MRT(0-t)	2.76 h
OC1(C(F)(F)F)CCN(c2nc(Nc3ccnc(C(F)(F)F)c3)nc(-c3cccc(C(F)(F)F)n3)n2)C1 (centres unmarked)	Sprague-Dawley rat	intravenous, 1 mg/kg	MRT(0-inf)	20.3 h
Cc1cc(/C=C/C#N)cc(C)c1Oc1nc(NC2CCN(Cc3ccc(S(C)(=O)=O)cc3)CC2)nc2ncccc12	Sprague-Dawley rat	intravenous, 2 mg/kg	MRT(0-t)	1.17 h
Cc1cc2c(cc1O)C=C1C=CC(=O)C(C)(C)[C@H]1CC2	male Sprague-Dawley rat	oral, 20 mg/kg	MRT(0-t)	4.81 h
CC(C)(C)C(=O)Nc1ccc2[nH]c(CN3CCC(N(CCCN4CCOCC4)CC4OC(n5cnc6c(N)ncnc65)C(O)C4O)CC3)nc2c1 (centres unmarked)	male Sprague-Dawley rat	intravenous, 20 mg/kg	MRT(0-t)	0.74 h

For quick reference, copied from above:
Structure (SMILES)	system	conditions	quantity	value
COc1cc(-c2cc(=O)c3ccc(OCCCn4c(Cl)nc5ccccc54)cc3o2)cc(OC)c1OC	male Sprague-Dawley rat	intravenous, 10 mg/kg	MRT(0-t)	2.76 h
